# Measurements of several laboratories.
# A part holds a random share of what one study measured. Numbers after ± are the reported error.

# Block 1
# Cell line: HEK-293T
# Read-out: pseudovirus infection
# Organism: VSV pseudotyped with SARS-CoV-2 spike
# Tested at: 10 µM
# Time: 16 h
# Relative to: vehicle-treated
SMILES,GFP-positive cells
C[C@]1(O)CC[C@H]2[C@@H]3CCC4=CC(=O)CC[C@]4(C)[C@@]3(F)[C@@H](O)C[C@@]21C,81.7%
CN1CCCC(n2nc(Cc3ccc(Cl)cc3)c3ccccc3c2=O)CC1 (centres unmarked),31.2%
c1ccc(CC2=NCCN2)cc1,108%

# Block 2
# Target: Replicase polyprotein 1ab, main protease (rep, Severe acute respiratory syndrome coronavirus 2, UniProt P0DTD1)
# Read-out: enzyme activity
# Mode: inhibitor
# Tested at: 20 µM
# Setting: hit confirmation, with DTT
Structure (SMILES),inhibition [%]
c1ccc2sc(SSc3nc4ccccc4s3)nc2c1,99.2
CC(=O)[O][Hg][c]1ccccc1,84.7
O=C(O)C(=O)CBr,-18.7

# Block 3
# Target: Replicase polyprotein 1ab, polymerase (rep, Severe acute respiratory syndrome coronavirus 2, UniProt P0DTD1)
# Read-out: enzyme activity
# Mode: inhibitor
# Tested at: 20 µM
SMILES,inhibition [%]
CC(=O)[C@@]1(O)CC[C@H]2[C@@H]3C=C(Cl)C4=CC(=O)[C@@H]5C[C@@H]5[C@]4(C)[C@H]3CC[C@@]21C,-9.45
CCOC(=O)C1=C(C)NC(c2ccccc2)=C(C(=O)OCc2ccc([N+](=O)[O-])cc2)C1C#Cc1ccccc1 (centres unmarked),2.45
Nc1nccc2c1ncn2[C@@H]1C=C(CO)[C@@H](O)[C@H]1O,-1.7
N[C@@H](C(=O)O)c1ccc(O)c(C(=O)O)c1,-3.84
CCCCCCCCCCCCCCCCCCOP(=O)([O-])OC1CC[N+](C)(C)CC1,-7.57
Cc1cc(C2CCCCC2)n(O)c(=O)c1,11.6
C[C@]12CCC(=O)C(O)=C1CC[C@@H]1[C@@H]2CC[C@]2(C)C(=O)CC[C@@H]12,0.44
NCCc1c[nH]c2ccc(C(N)=O)cc12,-8.79
CNc1ncnc2c1ncn2[C@@H]1O[C@H](CO)[C@@H](O)[C@H]1O,-6.04
C[C@]12CCC(=O)C=C1CC[C@@H]1[C@@H]2C(=O)C[C@]2(C)C(=O)CC[C@@H]12,-2.77
Cc1cc(=O)[nH]c(=S)[nH]1,28
C[C@]12CC[C@H]3C(=CCc4cc(O)ccc43)[C@@H]1CCC2=O,-1.76
Oc1cc(Cl)ccc1Oc1ccc(Cl)cc1Cl,-0.44
Cc1cc(C(C)(C)C)cc(C)c1CC1=NCCN1,-0.06
COc1cc(C(=O)NCC2(N(C)C)CCCC2)cc(OC)c1OCc1ccccc1,3.08
COc1ccc(-c2oc3c(CC=C(C)C)c(O)cc(O)c3c(=O)c2O)cc1,-5.84
CN(C)C(=N)NC(=N)N,-5.44
Cc1c(N)cccc1Cn1ccc(OCCc2cccs2)cc1=O,8.14
O=C(NC1CCOCC1)c1ccc(-c2cc(-c3c[nH]nc3-c3ccccn3)ccn2)cc1,-7.99
COc1ccc(C2=N[C@@H](c3ccc(Cl)cc3)[C@@H](c3ccc(Cl)cc3)N2C(=O)N2CCNC(=O)C2)c(OC(C)C)c1,1.27
N#Cc1ccc(Oc2ccc3c(c2)COB3O)cc1,-2.7
CCOc1nc2cccc(C(=O)O)c2n1Cc1ccc(-c2ccccc2-c2nnn[nH]2)cc1,5.22
C=C1CC/C=C(/C)CC[C@@H]2[C@@H]1CC2(C)C,-5.95
C=CC(=O)Nc1cccc(Nc2nc(Nc3ccc(Oc4ccnc(C(=O)NC)c4)cc3)ncc2F)c1,1.08
CC(=O)O[C@]1(C(C)=O)CC[C@H]2[C@@H]3CCC4=CC(=O)CCC4=C3[C@@H](c3ccc(N(C)C)cc3)C[C@@]21C,6.14

# Mixed results
# rep main protease: Replicase polyprotein 1ab, main protease (rep, Severe acute respiratory syndrome coronavirus 2, UniProt P0DTD1)
# B1: Urtica dioica agglutinin; sequence looked up; chain QRCGSQGGGGTCPALWCCSIWGWCGDSEPYCGRTCENKCWSGERSDHRCGAAVGNPPCGQDRCCSVHGWCGGGNDYCSGSKCQYRCSSSVRGPRVALSGNSTANSIGNVVVTEPLFDQMFSHRKDCPSQGFYSYHSFLVAAESFPAFGTIGDVATRKREVAAFLAHISQATSGERSDVENPHAWGLCHINTTTVTENDFCTSSDWPCAAGKKYSPRGPIQLTHNFNYGLAGQAIGEDLIQNPDLVEKDPIISFKTALWFWMSQHDNKPSCHDIVLNANSAANRIPNKGVIGNIISRAFGHDDFAVRSSSIGFYKRYCDMLGVSYGHDLKYWFDNTPSSEFQRIQMRVAA
Substance,target or system,assay,test system,conditions,scale,measurement,result
SNFRVQPTESIVRFP,human CD4 T cells,AIM,peptide,,,responding donors,9%
CCn1c(-c2nonc2N)nc2c(C#CC(C)(C)O)ncc(OC[C@H]3CCCNC3)c21,rep main protease,"reporter gene (mKate2), inhibitor",,20 µM,,inhibition,0.115%
O=C(/C=C/c1ccc(O)c(O)c1/C=C/c1ccc(O)c(O)c1)O[C@H](Cc1ccc(O)c(O)c1)C(=O)O,Severe acute respiratory syndrome coronavirus 2,cytopathic effect,Vero C1008,12.5 µM,,inhibition,0%
CC(C)(C)NC[C@H](O)COc1ccccc1C1CCCC1,SARS-CoV-2,"viral replication, GFP plate reader screen",,cell-based,,EC50,15.1 µM
B1 (Urtica dioica agglutinin),feline coronavirus,"viral cytopathic effect, microscopy",CRFK,,,EC50,2.4 mg/L
CCC(C)NC(=O)c1ccccc1NC(=O)c1ccc(C)c(S(=O)(=O)Nc2cccc(NC(=O)c3ccccc3)c2)c1 (centres unmarked),SARS-CoV-2,"plaque formation, plaque reduction",Vero E6,72 h,,EC50,> 50 µM
insulin human,,item: RYR2 mRNA,"uninfected mouse, brain","i.p., dose not given",relative to: PBS,fold change,1.18
COc1ccc([C@H](Cc2ccncc2)c2ccccc2)cc1OC1CCCC1,SARS-CoV-2,"viral replication, high-content imaging screen",BetaCov/Belgium/GHB-03021/2020,cell-based,,EC50,> 100 µM
Nc1ncnc2c([C@@H]3N[C@H](CO)[C@@H](O)[C@H]3O)c[nH]c12,Yellow fever virus,viral replication,"Vero 76, 17D",29.6 µM,,inhibition,67%
O=C(NC(Cc1ccccc1)C(=O)NCc1ccccn1)OCc1ccccc1 (centres unmarked),SARS-CoV-2,"plaque formation, plaque reduction",Vero E6,72 h,,EC50,20.7 ± 1.1 µM
CNCC1CCOC2(CCN(C(=O)C3(c4ccccc4)CCCC3)CC2)C1 (centres unmarked),Venezuelan equine encephalitis virus,viral replication,,,,EC50,20 µM
CCCN1CCN(CCCNC(=O)c2cc3c(Cl)nc4ccccc4c3s2)CC1,SARS-CoV-2,cytopathic effect,USA_WA1/2020,retest 8-point,,efficacy,75.1%
CS(=O)(=O)N(Cc1ccccc1)CC1CCOC2(CCN(C(=O)C3(c4ccccc4)CCCC3)CC2)C1 (centres unmarked),Venezuelan equine encephalitis virus,viral replication,,,,EC50,> 39.8 µM
FLPGVYSV,,AIM,"peptide, CD8+ T cells from PBMC, human donors","HLA-A*02:01 restricted, unit not given",relative to: positive over tested donors,frequency of responding donors,100
CC[C@H](C)[C@H](NC(=O)[C@H](CC(C)C)NC(=O)[C@H](Cc1c[nH]c2ccccc12)NC(=O)[C@H](CCC(N)=O)NC(=O)[C@@H](NC(=O)[C@H](Cc1ccccc1)NC(=O)[C@H](C)NC(=O)[C@H](CCCCNC(=O)COCCOCCNC(=O)COCCOCCNC(=O)CC[C@H](NC(=O)CCCCCCCCCCCCCCCCCCC(=O)O)C(=O)O)NC(=O)[C@H](CCC(N)=O)NC(=O)[C@H](C)NC(=O)[C@@H](NC(=O)[C@H](CCCCN)NC(=O)[C@H](CC(=O)O)NC(=O)[C@H](CC(C)C)NC(=O)C(C)(C)NC(=O)[C@@H](NC(=O)[C@H](CO)NC(=O)[C@H](Cc1ccc(O)cc1)NC(=O)[C@H](CC(=O)O)NC(=O)[C@H](CO)NC(=O)[C@@H](NC(=O)[C@H](Cc1ccccc1)NC(=O)[C@@H](NC(=O)CNC(=O)[C@H](CCC(=O)O)NC(=O)C(C)(C)NC(=O)[C@@H](N)Cc1ccc(O)cc1)[C@@H](C)O)[C@@H](C)O)[C@@H](C)CC)[C@@H](C)CC)C(C)C)C(=O)N[C@@H](C)C(=O)NCC(=O)NCC(=O)N1CCC[C@H]1C(=O)N[C@@H](CO)C(=O)N[C@@H](CO)C(=O)NCC(=O)N[C@@H](C)C(=O)N1CCC[C@H]1C(=O)N1CCC[C@H]1C(=O)N1CCC[C@H]1C(=O)N[C@@H](CO)C(N)=O,,item: anti-drug antibodies,patients with type 2 diabetes,"5/5/10/10 mg escalating, titer ≥1:20",,subjects with treatment-induced ADA,0%
CC(C)(C)NC(=O)[C@@H]1CN(Cc2cccnc2)CCN1C[C@@H](O)C[C@@H](Cc1ccccc1)C(=O)N[C@H]1c2ccccc2C[C@H]1O,rep main protease,"reporter gene (Gaussia luciferase), inhibitor",,20 µM,,inhibition,2.43%
env gp120 (HIV-1),"CD4 26-396 (Homo sapiens, UniProt P01730)",SPR,,,,Kd,0.0714 µM
CC(C)(C)NCc1ccc(Nc2ccnc3cc(Cl)ccc23)cc1O,SARS-CoV-2,cytopathic effect,USA_WA1/2020,"round 2, 5-point",,maximum response,75.5%
O=C(O)[C@H]1O[C@@H](Oc2cc(O)c3c(=O)cc(-c4ccc(O)c(O)c4)oc3c2)[C@H](O)[C@@H](O)[C@@H]1O,"Spike glycoprotein (Severe acute respiratory syndrome coronavirus 2, UniProt P0DTC2)","binding, biolayer interferometry",,,,kon,216 M⁻¹ s⁻¹
